Measured values from different studies.
Protocols differ between the studies behind these lines.

| Structure (SMILES) | assay | system | setting | Cmax |
| --- | --- | --- | --- | --- |
| NCCCS(=O)(=O)O | – | human, plasma | oral, 265 mg twice daily, steady state week 65 | 1210 ng/mL |
| OCc1ncc2n1-c1ccc(Cl)cc1C(c1ccccc1F)=NC2 | – | human, plasma | 7.5 mg midazolam, day 12, arithmetic mean, added: amenamevir 400 mg | 17 ng/mL |
| CC(=O)c1c(C)c2cnc(Nc3ccc(C4CCN(CCS(C)(=O)=O)CC4)cn3)nc2n(C2CCCC2)c1=O | – | human, plasma | oral, 50 mg twice daily, day 1, single dose, added: letrozole | 95.7 ng/mL |
| C[C@H](NC(=O)c1c(C(F)F)nn(C)c1Oc1cccc(C(F)(F)F)c1)c1ccc(C(=O)O)cc1 | – | human, plasma | 750 mg, cycle 1 day 8, mean | 1000 ng/mL |
| CO[C@H]1/C=C\C=C(/C)C(=O)NC2=CC(=O)C(N)=C(C[C@@H](C)C[C@H](OC)[C@H](O)[C@@H](C)/C=C(\C)[C@@H]1OC(N)=O)C2=O | – | human, plasma | 400 mg/m2 | 3380 ng/mL |
| CC[C@H](C)C(=O)O[C@H]1C[C@H](O)C=C2C=C[C@H](C)[C@H](CC[C@@H](O)C[C@@H](O)CC(=O)O)[C@H]21 | – | OATP1B1/1B3 humanized mouse | oral, dose not given | 786 nM |
| Cc1ncc2n1-c1ccc(Cl)cc1C(c1ccccc1F)=NC2 | – | human healthy subjects, plasma | oral, 2 mg, alone, fed, geometric mean, added: omeprazole 20 mg | 7.4 ng/mL |
| O=c1ccc2ncc(=O)n3c2n1C[C@H]3CN1CCC(NCc2cc3c(cn2)OCCC3)CC1 | – | healthy human volunteers, plasma | oral, 1500 mg single dose, arithmetic mean, alone | 3940 ng/mL |
| CC(=O)C[C@@H](c1ccccc1)c1c(O)c2ccccc2oc1=O | – | human | dose not given, alone | 530 ng/mL |
| OCc1ncc2n1-c1ccc(Cl)cc1C(c1ccccc1F)=NC2 | – | healthy human volunteers, plasma | 5 mg single dose, day 1, fed, given alone | 6.4 ng/mL |
| OCc1ncc2n1-c1ccc(Cl)cc1C(c1ccccc1F)=NC2 | – | humans, plasma | 3 mg of midazolam, midazolam alone | 3.9 ng/mL |
| CC(C)c1nc(N(C)S(C)(=O)=O)nc(-c2ccc(F)cc2)c1/C=C/[C@@H](O)C[C@@H](O)CC(=O)O | – | healthy human subjects, plasma | oral, 20 mg, day 1, fed, single dose, alone, geometric mean | 4.37 ng/mL |
| C[C@]1(CO)Cc2ncn(-c3ccc(C#N)c(Cl)c3)c2C(=O)O1 | – | human, plasma | 0.7 mg single dose, geometric mean | 25.6 nM |
| O[C@H]1CCCN[C@@H]1CCCn1cnc2c(Cl)c(Cl)ccc21 | – | human, UGT2B7 NN phenotype, plasma | oral, 150 mg, single dose | 242 ng/mL |
| Cn1ncc(-c2nc(N[C@H]3CC[C@H](N)CC3)ncc2Cl)c1CC1CC1 | HPLC-MS/MS | human patients | oral, 3 mg, day 1 | 4.72 ng/mL |
| N.N.O=C([O-])C1(C(=O)[O-])CCC1.[Pt+2] | measured: non-protein-bound platinum | human, plasma ultrafiltrate | target AUC 3, median | 18000 ng/mL |
| Cc1ncc2n1-c1ccc(Cl)cc1C(c1ccccc1F)=NC2 | – | human, plasma | oral, 2 mg, day 1 | 8.32 ng/mL |
| O=C(O)C(F)(F)C(F)(F)C(F)(F)C(F)(F)C(F)(F)C(F)(F)C(F)(F)F | two-compartment model | human, plasma | oral, 50 mg weekly | 27200 ng/mL |
| CNC(=O)c1c(C)oc2cc(Oc3ccnc4cc(OCCN5CCOCC5)ccc34)ccc12 | – | human, fasted | concentration not given, mean | 34.4 ng/mL |
| OCc1ncc2n1-c1ccc(Cl)cc1C(c1ccccc1F)=NC2 | CYP3A4 probe metabolite | human, plasma | oral, 2 mg midazolam, day -7, probe cocktail alone, geometric mean | 45.2 ng/mL |
| OCc1ncc2n1-c1ccc(Cl)cc1C(c1ccccc1F)=NC2 | – | human, plasma | oral, 2.5 mg, day 1 | 3.7 ng/mL |
| N.N.O=C([O-])C1(C(=O)[O-])CCC1.[Pt+2] | ICP-MS platinum, measured: platinum | human patients, plasma | dose not given, carboplatin target AUC 4, cycle 1 day 1 | 30000 ng/mL |
| Cc1ncc2n1-c1ccc(Cl)cc1C(c1ccccc1F)=NC2 | – | healthy male humans, plasma | oral, 7.5 mg single dose, phase I DDI study, alone | 27.2 ng/mL |
| COc1ccc(F)cc1C(=O)NCc1ccc(-c2nn([C@@H](C)C(F)(F)F)c(N)c2C(N)=O)cc1 | – | human, plasma | oral, 200 mg once daily, added: intravenous midazolam | 8620 ng/mL |
| O=C(O)CCS(=O)(=O)O | – | human, plasma | oral, 265 mg twice daily, steady state week 65 | 440 ng/mL |
| Cc1ncc2n1-c1ccc(Cl)cc1C(c1ccccc1F)=NC2 | – | human, plasma | oral, 2 mg, day 1, single dose alone, geometric LS mean | 9.2 ng/mL |
| CCC(CC)COC(=O)[C@H](C)N[P@](=O)(OC[C@H]1O[C@@](C#N)(c2ccc3c(N)ncnn23)[C@H](O)[C@@H]1O)Oc1ccccc1 | – | human, plasma | intravenous, 100 mg single dose | 2410 ng/mL |
| COc1ccc(C[C@@H]2NC(=O)[C@H]([C@@H](C)O)NC(=O)[C@@H]3[C@@H]4CCN3C(=O)[C@@H]3Cc5cn(c6ccc(F)cc56)CCCCCCN(Cc5ccc(cc5)CCNC(=O)[C@]5(C)CCCN5C2=O)C(=O)CCC(=O)N[C@@H](C)C(=O)N[C@H](CNC(=O)CCCCC[N+](C)(C)C)C(=O)N[C@@H](Cc2cccc(c2)CNC(=O)CO4)C(=O)N3)cc1 | – | human, plasma | oral, 40 mg, high-fat breakfast 30 min before, added: sodium caprate 720 mg | 3.5 nM |

A few entries again:
| Structure (SMILES) | assay | system | setting | Cmax |
| --- | --- | --- | --- | --- |
| Cc1ncc2n1-c1ccc(Cl)cc1C(c1ccccc1F)=NC2 | – | human, plasma | oral, 2 mg, day 1, single dose alone, geometric LS mean | 9.2 ng/mL |
| CNC(=O)c1c(C)oc2cc(Oc3ccnc4cc(OCCN5CCOCC5)ccc34)ccc12 | – | human, fasted | concentration not given, mean | 34.4 ng/mL |
| OCc1ncc2n1-c1ccc(Cl)cc1C(c1ccccc1F)=NC2 | – | humans, plasma | 3 mg of midazolam, midazolam alone | 3.9 ng/mL |
| CC(=O)c1c(C)c2cnc(Nc3ccc(C4CCN(CCS(C)(=O)=O)CC4)cn3)nc2n(C2CCCC2)c1=O | – | human, plasma | oral, 50 mg twice daily, day 1, single dose, added: letrozole | 95.7 ng/mL |
